{"data": "Measured values pooled from the literature", "note": "Each numbered part is a random draw from the data of one study; scales do not carry over between parts. Values joined by “and” are separate records of one study, mostly repeats; a detail may differ.", "chain of UniProt P31645 (whole entry, looked up)": "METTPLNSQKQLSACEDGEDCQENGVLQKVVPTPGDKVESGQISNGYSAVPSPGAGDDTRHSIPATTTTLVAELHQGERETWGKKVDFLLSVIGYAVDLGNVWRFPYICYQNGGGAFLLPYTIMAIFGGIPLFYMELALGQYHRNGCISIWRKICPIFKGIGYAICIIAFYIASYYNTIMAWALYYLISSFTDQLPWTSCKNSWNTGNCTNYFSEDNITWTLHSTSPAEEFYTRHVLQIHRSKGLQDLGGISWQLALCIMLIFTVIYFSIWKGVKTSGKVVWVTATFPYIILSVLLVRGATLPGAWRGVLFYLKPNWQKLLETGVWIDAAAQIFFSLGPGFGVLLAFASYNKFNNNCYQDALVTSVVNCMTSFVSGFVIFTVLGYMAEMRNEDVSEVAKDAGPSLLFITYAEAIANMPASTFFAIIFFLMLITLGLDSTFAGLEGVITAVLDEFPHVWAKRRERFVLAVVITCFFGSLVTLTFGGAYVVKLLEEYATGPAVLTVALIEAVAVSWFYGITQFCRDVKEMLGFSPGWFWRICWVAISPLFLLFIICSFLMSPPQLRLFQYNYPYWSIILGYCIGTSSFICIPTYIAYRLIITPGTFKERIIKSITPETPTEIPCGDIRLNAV", "chain of UniProt P21918 (whole entry, looked up)": "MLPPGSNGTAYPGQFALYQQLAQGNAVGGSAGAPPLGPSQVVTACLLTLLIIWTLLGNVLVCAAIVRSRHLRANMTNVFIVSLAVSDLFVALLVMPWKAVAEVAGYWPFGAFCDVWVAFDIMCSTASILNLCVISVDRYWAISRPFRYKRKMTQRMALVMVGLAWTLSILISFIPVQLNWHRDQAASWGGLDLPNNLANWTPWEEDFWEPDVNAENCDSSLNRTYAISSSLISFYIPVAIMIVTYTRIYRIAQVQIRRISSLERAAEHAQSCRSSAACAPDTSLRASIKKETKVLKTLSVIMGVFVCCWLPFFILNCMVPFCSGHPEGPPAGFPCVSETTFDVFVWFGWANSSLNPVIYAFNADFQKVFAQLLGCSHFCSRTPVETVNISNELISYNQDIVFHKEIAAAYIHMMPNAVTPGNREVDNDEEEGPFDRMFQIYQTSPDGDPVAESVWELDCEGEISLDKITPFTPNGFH", "chain of UniProt Q01959 (whole entry, looked up)": "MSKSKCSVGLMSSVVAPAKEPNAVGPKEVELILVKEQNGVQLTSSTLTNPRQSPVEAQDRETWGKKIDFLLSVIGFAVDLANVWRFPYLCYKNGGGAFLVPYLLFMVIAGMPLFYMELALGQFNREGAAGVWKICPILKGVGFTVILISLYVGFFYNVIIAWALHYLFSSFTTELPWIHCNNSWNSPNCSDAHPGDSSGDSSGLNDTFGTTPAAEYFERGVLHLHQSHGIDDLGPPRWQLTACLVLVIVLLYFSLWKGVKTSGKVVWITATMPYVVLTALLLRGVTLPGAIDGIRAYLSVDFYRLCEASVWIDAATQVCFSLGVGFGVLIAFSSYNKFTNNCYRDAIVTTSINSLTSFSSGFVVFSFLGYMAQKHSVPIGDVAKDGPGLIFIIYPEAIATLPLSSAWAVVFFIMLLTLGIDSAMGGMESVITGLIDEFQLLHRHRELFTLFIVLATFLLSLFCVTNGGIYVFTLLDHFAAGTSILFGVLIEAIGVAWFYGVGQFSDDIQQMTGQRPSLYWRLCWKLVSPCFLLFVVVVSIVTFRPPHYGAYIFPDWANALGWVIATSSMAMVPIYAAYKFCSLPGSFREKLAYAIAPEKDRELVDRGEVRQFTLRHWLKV", "chain of UniProt P23975 (whole entry, looked up)": "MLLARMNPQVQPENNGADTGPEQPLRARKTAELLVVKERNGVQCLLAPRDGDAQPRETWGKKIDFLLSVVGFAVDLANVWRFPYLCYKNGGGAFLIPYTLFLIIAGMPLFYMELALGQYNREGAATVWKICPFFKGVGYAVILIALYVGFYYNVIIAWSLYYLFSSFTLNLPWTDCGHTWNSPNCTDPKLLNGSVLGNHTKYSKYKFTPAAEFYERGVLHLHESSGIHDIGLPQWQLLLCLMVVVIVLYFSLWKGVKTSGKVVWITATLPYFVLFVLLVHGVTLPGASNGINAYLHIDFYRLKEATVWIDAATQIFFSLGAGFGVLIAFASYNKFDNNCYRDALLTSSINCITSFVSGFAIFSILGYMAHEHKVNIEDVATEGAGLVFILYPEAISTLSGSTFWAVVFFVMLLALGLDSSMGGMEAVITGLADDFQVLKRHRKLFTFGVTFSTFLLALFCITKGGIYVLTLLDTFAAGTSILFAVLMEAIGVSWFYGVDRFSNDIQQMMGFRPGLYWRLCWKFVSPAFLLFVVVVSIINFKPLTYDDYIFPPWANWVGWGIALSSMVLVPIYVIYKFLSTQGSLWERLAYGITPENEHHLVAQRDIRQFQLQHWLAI"}
{"data": "Study 1", "target": "DNA polymerase theta, ATPase domain (POLQ, Homo sapiens, UniProt O75417)", "observed": "enzyme activity", "action": "inhibitor", "tested at": "77 µM", "chain of UniProt O75417 (whole entry, unmodified, looked up)": "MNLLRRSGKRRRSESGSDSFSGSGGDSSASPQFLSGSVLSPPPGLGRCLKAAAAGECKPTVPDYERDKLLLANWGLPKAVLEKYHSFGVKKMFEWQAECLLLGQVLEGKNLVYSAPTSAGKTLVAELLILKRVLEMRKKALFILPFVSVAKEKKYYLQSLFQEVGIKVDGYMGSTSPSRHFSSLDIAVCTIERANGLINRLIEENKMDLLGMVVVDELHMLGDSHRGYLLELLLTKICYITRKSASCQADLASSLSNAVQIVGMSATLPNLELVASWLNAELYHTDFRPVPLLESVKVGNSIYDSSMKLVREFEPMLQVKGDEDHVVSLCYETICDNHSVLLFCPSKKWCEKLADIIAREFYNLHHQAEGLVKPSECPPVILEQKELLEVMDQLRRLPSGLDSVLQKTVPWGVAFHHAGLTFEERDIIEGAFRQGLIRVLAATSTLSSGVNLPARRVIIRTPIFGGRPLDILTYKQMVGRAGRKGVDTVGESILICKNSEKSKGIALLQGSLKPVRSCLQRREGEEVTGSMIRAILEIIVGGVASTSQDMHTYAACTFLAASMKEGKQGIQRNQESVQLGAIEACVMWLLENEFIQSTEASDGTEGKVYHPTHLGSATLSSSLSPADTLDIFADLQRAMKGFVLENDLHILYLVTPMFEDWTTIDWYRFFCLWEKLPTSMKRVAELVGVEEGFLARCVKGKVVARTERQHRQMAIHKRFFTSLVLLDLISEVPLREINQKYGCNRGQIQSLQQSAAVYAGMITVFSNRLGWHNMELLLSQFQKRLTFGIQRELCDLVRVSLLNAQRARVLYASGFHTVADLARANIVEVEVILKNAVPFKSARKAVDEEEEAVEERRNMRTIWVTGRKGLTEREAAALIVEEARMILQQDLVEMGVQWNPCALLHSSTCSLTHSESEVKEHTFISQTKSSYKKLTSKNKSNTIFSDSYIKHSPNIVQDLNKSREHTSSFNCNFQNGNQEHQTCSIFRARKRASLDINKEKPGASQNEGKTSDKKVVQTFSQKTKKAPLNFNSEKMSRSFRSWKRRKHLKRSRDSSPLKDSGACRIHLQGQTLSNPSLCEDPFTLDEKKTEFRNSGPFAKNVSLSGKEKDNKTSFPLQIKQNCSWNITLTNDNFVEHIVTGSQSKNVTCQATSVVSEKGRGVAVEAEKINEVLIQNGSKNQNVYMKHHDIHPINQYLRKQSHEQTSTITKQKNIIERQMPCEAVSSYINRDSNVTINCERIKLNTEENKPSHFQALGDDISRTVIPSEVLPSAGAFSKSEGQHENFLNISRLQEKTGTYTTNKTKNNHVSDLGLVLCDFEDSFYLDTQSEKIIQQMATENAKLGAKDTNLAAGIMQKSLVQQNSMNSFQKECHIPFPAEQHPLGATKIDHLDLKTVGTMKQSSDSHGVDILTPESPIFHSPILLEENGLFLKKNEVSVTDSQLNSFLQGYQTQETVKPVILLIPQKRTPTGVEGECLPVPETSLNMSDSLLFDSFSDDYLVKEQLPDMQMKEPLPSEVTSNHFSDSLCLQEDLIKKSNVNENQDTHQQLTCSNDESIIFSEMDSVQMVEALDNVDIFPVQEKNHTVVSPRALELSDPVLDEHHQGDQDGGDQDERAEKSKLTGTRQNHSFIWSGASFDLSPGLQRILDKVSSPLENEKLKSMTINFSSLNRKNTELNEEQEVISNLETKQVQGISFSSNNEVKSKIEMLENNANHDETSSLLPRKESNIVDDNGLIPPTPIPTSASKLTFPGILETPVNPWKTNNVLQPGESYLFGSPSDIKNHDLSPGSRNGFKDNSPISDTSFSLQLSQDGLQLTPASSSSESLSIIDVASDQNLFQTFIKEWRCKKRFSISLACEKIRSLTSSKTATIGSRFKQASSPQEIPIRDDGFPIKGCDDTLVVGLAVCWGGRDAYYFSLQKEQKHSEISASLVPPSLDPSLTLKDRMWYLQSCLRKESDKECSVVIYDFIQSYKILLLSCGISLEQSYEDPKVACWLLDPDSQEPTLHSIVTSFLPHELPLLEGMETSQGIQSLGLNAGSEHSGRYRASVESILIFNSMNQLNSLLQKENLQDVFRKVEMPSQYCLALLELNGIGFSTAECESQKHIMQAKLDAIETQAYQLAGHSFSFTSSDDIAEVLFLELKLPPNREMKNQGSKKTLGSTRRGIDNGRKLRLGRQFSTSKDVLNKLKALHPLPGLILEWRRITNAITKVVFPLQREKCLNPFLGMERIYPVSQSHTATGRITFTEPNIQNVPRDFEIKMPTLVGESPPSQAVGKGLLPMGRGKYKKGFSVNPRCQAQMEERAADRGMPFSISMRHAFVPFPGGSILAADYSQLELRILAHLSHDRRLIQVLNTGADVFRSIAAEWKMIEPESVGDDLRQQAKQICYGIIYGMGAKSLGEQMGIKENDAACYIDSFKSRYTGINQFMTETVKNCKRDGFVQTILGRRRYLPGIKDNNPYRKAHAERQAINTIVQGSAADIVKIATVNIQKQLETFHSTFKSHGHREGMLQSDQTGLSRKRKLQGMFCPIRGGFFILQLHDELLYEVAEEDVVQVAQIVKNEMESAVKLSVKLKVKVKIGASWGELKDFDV"}
{"Structure (SMILES)": "C=CCN1CC[C@]23c4c5ccc(O)c4O[C@H]2C(=O)CC[C@@]3(O)[C@H]1C5", "remaining activity [%]": 101}
{"Structure (SMILES)": "NC1CCc2cc(O)c(O)cc2C1 (stereo not drawn)", "remaining activity [%]": 112}
{"Structure (SMILES)": "CN1CCN(c2nc3ccccc3nc2Cl)CC1", "remaining activity [%]": 104}
{"Structure (SMILES)": "Fc1cc(F)c2c(c1)[C@H]1C=CC[C@H]1C(c1cccnc1)N2 (stereo partly drawn)", "remaining activity [%]": 110}
{"Structure (SMILES)": "CN1C[C@H](CO)C=C2c3cccc4[nH]cc(c34)C[C@H]21", "remaining activity [%]": 100}
{"Structure (SMILES)": "C[C@H](Cc1ccc2c(c1)OC(C(=O)O)(C(=O)O)O2)NC[C@H](O)c1cccc(Cl)c1", "remaining activity [%]": 97.6}
{"Structure (SMILES)": "O=C1Nc2ccc3ncsc3c2/C1=C/c1cnc[nH]1", "remaining activity [%]": 111}
{"Structure (SMILES)": "Cc1nccc2c1[nH]c1cc(O)ccc12", "remaining activity [%]": 103}
{"Structure (SMILES)": "Oc1ccc2c3c1O[C@H]1[C@@H](O)CC[C@@]4(O)[C@@H](C2)N(CC2CCC2)CC[C@]314", "remaining activity [%]": 99.2}
{"Structure (SMILES)": "C[C@]12CC[C@H](O)C[C@H]1CC[C@@H]1[C@@H]2C[C@@H](O)[C@]2(C)[C@@H](C3=CC(=O)OC3)CC[C@]12O", "remaining activity [%]": 103}
{"Structure (SMILES)": "CN1CCc2cc3c(cc2C1O)OCO3 (stereo not drawn)", "remaining activity [%]": 99}
{"data": "Study 2", "Structure (SMILES)": "CO[C@@H](C)c1c(Nc2ccc([C@@H](N(C)C(=O)C3CCS(=O)(=O)CC3)C(F)(F)F)cc2)cnc2cc(Cl)nn12", "tested at": "10 µM"}
{"target": "HTR1A (Homo sapiens, UniProt P08908)", "assay": "ligand displacement", "inhibition": "-11.6%"}
{"target": "OPRM1 (Homo sapiens, UniProt P35372)", "assay": "binding, radioligand binding", "inhibition": "6.39%"}
{"target": "SLC6A3 (Homo sapiens, UniProt Q01959)", "assay": "binding, radioligand binding", "inhibition": "-18.1%"}
{"target": "SLC6A4 (Homo sapiens, UniProt P31645)", "assay": "binding, radioligand binding", "inhibition": "14.6%"}
{"target": "DRD5 (Homo sapiens, UniProt P21918)", "assay": "binding, radioligand binding", "inhibition": "4.72%"}
{"target": "CHRM3 (Homo sapiens, UniProt P20309)", "assay": "binding, radioligand binding", "inhibition": "-2.58%"}
{"target": "OPRK1 (Homo sapiens, UniProt P41145)", "assay": "binding, radioligand binding", "inhibition": "29.4%"}
{"target": "SLC6A2 (Homo sapiens, UniProt P23975)", "assay": "binding, radioligand binding", "inhibition": "-20.6%"}
{"data": "Study 3", "cell line": "HEK-293T/ACE2", "tested at": "concentration not given", "time": "16 (unit not given)", "relative to": "vehicle"}
{"Structure (SMILES)": "CC(=O)O[C@H]1C[C@@H]2CC[C@@H]3[C@H](CC[C@@]4(C)[C@H]3C[C@H]([N+]3(C)CCCCC3)[C@@H]4OC(C)=O)[C@@]2(C)C[C@@H]1[N+]1(C)CCCCC1", "viability [%]": 105}
{"Structure (SMILES)": "CCC(=O)O[C@]1(C(=O)CCl)[C@@H](C)C[C@H]2[C@@H]3CCC4=CC(=O)C=C[C@]4(C)[C@@]3(F)[C@@H](O)C[C@@]21C", "viability [%]": 101}
{"Structure (SMILES)": "COc1cc2nc(N3CCN(C(=O)C4CCCO4)CC3)nc(N)c2cc1OC (stereo not drawn)", "viability [%]": 107}
{"Structure (SMILES)": "C[N+](C)(C)CC(=O)O", "viability [%]": 94.5}
{"Structure (SMILES)": "CC(c1cc2ccccc2s1)N(O)C(N)=O (stereo not drawn)", "viability [%]": 101}
{"Structure (SMILES)": "C=CC1=C(C(=O)O)N2C(=O)[C@@H](NC(=O)/C(=N\\O)c3csc(N)n3)[C@H]2SC1", "viability [%]": 97.8}
{"Structure (SMILES)": "CC1CNc2c(cccc2S(=O)(=O)N[C@@H](CCCNC(=N)N)C(=O)N2CC[C@@H](C)C[C@@H]2C(=O)O)C1 (stereo partly drawn)", "viability [%]": 107}
{"Structure (SMILES)": "CCCC(=O)O[C@]1(C(=O)CO)CC[C@H]2[C@@H]3CCC4=CC(=O)CC[C@]4(C)[C@H]3[C@@H](O)C[C@@]21C", "viability [%]": 103}
{"Structure (SMILES)": "CC(C)NCC(O)c1ccc(NS(C)(=O)=O)cc1 (stereo not drawn)", "viability [%]": 99.4}
{"Structure (SMILES)": "Cc1ccnc2c1NC(=O)c1cccnc1N2C1CC1", "viability [%]": 99}
{"Structure (SMILES)": "O=C(CCCCC(=O)Nc1c(I)cc(I)c(C(=O)O)c1I)Nc1c(I)cc(I)c(C(=O)O)c1I", "viability [%]": 102}
{"Structure (SMILES)": "CCC1(c2ccccc2)C(=O)NCNC1=O", "viability [%]": 99.7}
{"data": "Study 4", "SMILES": "CNC(=O)c1ccc(-c2cnn3ccc(C(=O)N(C)c4ccc(Cl)c(C(=O)OC)c4)cc23)cc1", "sample": "plasma", "route": "oral", "dose": "10 mg/kg"}
{"system": "female IFN-γ knockout C57BL/6 mice", "conditions": "7 h", "plasma concentration": "0.325 nM and 0.746 nM and 0.765 nM"}
{"system": "C57BL/6 IFN-γ knockout mouse, female", "conditions": "1 h", "plasma concentration": "12.2 nM"}
{"system": "female IFN-γ knockout C57BL/6 mice", "conditions": "1 h", "plasma concentration": "6.42 nM and 6.58 nM"}
{"system": "female IFN-γ knockout C57BL/6 mice", "conditions": "0.5 h", "plasma concentration": "3.17 nM and 2.16 nM"}
{"system": "C57BL/6 IFN-γ knockout mouse, female", "conditions": "0.25 h", "plasma concentration": "0.826 nM"}
{"system": "female IFN-γ knockout C57BL/6 mice", "conditions": "0.25 h", "plasma concentration": "0.818 nM"}
{"system": "C57BL/6 IFN-γ knockout mouse, female", "conditions": "0.5 h", "plasma concentration": "3.48 nM"}
{"system": "female IFN-γ knockout C57BL/6 mice", "conditions": "3 h", "plasma concentration": "2.7 nM and 2.24 nM and 1.02 nM"}
